Assay results collected from several papers.
A part holds a random share of what one study measured. Substitutions count along the parent as printed.
Chain of UniProt Q9FGV1 (whole entry, looked up): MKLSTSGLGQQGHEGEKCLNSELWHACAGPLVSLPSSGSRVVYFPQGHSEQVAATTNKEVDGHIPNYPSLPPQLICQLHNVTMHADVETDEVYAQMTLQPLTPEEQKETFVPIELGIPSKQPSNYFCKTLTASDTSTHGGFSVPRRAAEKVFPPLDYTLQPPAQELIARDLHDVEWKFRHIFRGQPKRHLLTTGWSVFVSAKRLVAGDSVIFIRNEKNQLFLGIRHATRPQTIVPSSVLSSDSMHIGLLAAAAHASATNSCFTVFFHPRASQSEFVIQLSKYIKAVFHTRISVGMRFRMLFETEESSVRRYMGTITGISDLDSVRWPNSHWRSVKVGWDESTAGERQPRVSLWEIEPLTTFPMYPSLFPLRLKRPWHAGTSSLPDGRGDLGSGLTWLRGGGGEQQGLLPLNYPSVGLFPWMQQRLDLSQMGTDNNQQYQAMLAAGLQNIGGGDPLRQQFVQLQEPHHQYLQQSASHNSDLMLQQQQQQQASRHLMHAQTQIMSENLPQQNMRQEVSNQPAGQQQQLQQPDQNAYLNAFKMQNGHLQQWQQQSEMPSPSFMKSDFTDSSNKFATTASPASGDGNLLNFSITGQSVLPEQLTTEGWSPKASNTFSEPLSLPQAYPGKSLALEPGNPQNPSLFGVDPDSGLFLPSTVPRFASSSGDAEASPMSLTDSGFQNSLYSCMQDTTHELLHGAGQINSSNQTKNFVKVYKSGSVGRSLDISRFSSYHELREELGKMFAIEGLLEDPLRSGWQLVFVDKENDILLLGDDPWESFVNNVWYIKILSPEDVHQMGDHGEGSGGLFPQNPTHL
Chain of UniProt Q93WC4 (whole entry, looked up): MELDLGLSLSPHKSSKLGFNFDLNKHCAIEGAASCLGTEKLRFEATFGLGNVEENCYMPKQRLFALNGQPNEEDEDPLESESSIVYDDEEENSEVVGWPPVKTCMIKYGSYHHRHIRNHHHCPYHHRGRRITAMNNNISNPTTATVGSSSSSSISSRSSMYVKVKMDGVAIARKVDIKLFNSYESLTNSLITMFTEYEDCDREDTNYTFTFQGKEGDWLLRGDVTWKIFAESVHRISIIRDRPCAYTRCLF
Chain of UniProt Q9FKM7 (whole entry, looked up): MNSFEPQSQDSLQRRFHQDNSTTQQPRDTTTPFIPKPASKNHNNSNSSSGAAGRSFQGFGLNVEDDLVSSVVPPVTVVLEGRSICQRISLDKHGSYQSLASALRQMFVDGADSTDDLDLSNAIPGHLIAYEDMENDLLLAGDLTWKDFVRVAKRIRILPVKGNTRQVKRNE
Chain of UniProt Q9C5X0 (whole entry, looked up): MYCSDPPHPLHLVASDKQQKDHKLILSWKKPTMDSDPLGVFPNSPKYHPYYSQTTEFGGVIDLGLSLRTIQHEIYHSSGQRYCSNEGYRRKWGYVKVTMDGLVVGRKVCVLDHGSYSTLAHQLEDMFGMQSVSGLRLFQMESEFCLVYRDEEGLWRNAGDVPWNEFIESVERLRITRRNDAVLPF
Chain of UniProt O24410 (whole entry, looked up): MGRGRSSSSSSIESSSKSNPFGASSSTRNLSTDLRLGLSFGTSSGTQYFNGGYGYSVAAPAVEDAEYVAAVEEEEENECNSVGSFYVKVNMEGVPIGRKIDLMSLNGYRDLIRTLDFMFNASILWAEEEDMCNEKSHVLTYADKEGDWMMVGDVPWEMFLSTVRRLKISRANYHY
Chain of UniProt Q9ZTX9 (whole entry, looked up): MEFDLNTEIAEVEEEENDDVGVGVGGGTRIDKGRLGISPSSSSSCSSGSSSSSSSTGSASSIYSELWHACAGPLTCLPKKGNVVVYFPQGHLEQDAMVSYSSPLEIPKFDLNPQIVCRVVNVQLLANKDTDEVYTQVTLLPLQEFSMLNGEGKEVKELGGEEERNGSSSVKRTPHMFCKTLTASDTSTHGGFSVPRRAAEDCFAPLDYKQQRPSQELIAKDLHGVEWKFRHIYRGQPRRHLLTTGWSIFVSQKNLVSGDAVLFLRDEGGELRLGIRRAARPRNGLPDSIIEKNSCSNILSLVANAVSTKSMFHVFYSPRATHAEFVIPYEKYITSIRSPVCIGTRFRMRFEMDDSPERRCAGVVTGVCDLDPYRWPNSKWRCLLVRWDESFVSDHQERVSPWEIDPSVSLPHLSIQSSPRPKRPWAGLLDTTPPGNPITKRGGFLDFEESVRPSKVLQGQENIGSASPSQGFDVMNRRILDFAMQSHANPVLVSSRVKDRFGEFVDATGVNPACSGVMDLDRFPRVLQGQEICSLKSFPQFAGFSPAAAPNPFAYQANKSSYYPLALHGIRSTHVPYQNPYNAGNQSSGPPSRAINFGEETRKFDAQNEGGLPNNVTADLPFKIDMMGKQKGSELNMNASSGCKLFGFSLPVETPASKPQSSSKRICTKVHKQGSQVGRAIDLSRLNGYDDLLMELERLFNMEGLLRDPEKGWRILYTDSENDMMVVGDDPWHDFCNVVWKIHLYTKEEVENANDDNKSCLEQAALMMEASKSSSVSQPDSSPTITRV

Series 1
Sequence: B1 (IAA16)
Method: two-hybrid
Reading: higher = firmer interaction
B1: IAA16 (Arabidopsis thaliana, UniProt O24407); chain MINFEATELRLGLPGGNHGGEMAGKNNGKRGFSETVDLKLNLSSTAMDSVSKVDLENMKEKVVKPPAKAQVVGWPPVRSFRKNVMSGQKPTTGDATEGNDKTSGSSGATSSASACATVAYVKVSMDGAPYLRKIDLKLYKTYQDLSNALSKMFSSFTIGNYGPQGMKDFMNESKLIDLLNGSDYVPTYEDKDGDWMLVGDVPWEMFVDSCKRIRIMKGSEAIGLAPRALEKCKNRS
partner | conditions | scale | positive tests
IAA20 (Arabidopsis thaliana, UniProt O24410) | weak activation fusion | reference: out of 2 tests | 0
IAA34 (Arabidopsis thaliana, UniProt Q9C5X0) |  | reference: out of 4 tests | 3
ARF8 699-811 (Arabidopsis thaliana, UniProt Q9FGV1) |  | reference: out of 4 tests | 4
IAA29 (Arabidopsis thaliana, UniProt Q93WC4) |  | reference: out of 4 tests | 1
IAA33 (Arabidopsis thaliana, UniProt Q9FKM7) |  | reference: out of 4 tests | 2
IAA17 (Arabidopsis thaliana, UniProt P93830) |  | reference: out of 4 tests | 4
ARF4 660-788 (Arabidopsis thaliana, UniProt Q9ZTX9) |  | reference: out of 4 tests | 0

Series 2
Target: CCND2, cyclin fold, Cln2 fusion (human)
Method: yeast growth competition, sequencing
Medium: yeast
Setting: weak parent motif
Reference: not given
Reading: higher = stronger binding
Starting sequence: PKN2 docking peptide (human); VSAVQKLDFSDTM
Substitution | normalised enrichment score
VSAVQKQDFSDTM [L7Q] | -0.156
VSAVRKLDFSDTM [Q5R] | 2.7
PSAVQKLDFSDTM [V1P] | 0.566
VSAVQKLPFSDTM [D8P] | 0.403
VSAVQDLDFSDTM [K6D] | 0.0828
VSAVQKLDTSDTM [F9T] | -0.0127
VSAVQKLDFFDTM [S10F] | 0.185
VSAVQKLDFSDGM [T12G] | 0.695
VSAVQKWDFSDTM [L7W] | 0.233
VSAVQKLDFSRTM [D11R] | 0.449
VSEVQKLDFSDTM [A3E] | -0.253
VSAVQKLDQSDTM [F9Q] | 0.245
VVAVQKLDFSDTM [S2V] | 0.443
VSFVQKLDFSDTM [A3F] | 0.173
VSAYQKLDFSDTM [V4Y] | 0.407
VSAVQKLDFSDTT [M13T] | 0.706
LSAVQKLDFSDTM [V1L] | 0.413
VSAVQKLDFSDVM [T12V] | 0.509
VSAVQKLDFSDTY [M13Y] | 0.935
ASAVQKLDFSDTM [V1A] | 0.377
VSAPQKLDFSDTM [V4P] | -0.0599

Series 3
Target: Prothrombin, mature alpha-thrombin (F2, Homo sapiens, UniProt P00734)
Method: aptamer microarray, sandwich
Molecule type: DNA with 2'F-ANA
Medium: in vitro
Concentration: 200 nM
Setting: whole 15-mer aptamer, many near background
Together with: Cy3 exosite-II aptamer, 400 nM
Reading: higher = stronger binding
Oligonucleotide: GGTTGGTGTGGTTGG
Modification | mean fluorescence intensity [a.u.]
2'F-ANA at 1 2 4 5 6 8 11 12 13 | 77.6
2'F-ANA at 3 5 6 7 10 11 12 15 | 61.1
2'F-ANA at 1 2 3 4 6 7 8 10 12 14 | 56.2
2'F-ANA at 5 6 7 8 9 10 15 | 47.5
2'F-ANA at 1 7 8 9 10 11 12 14 | 49.8
2'F-ANA at 3 4 5 6 8 10 12 15 | 154
2'F-ANA at 3 4 5 8 10 12 13 14 | 47
2'F-ANA at 1 4 9 10 13 | 47.8
2'F-ANA at 2 3 4 6 7 8 9 11 12 14 | 265
2'F-ANA at 4 5 7 11 14 | 44.8
2'F-ANA at 2 3 5 8 9 11 12 13 15 | 131
2'F-ANA at 2 7 8 10 12 15 | 206
2'F-ANA at 1 4 8 9 11 13 | 101
2'F-ANA at 1 2 3 4 6 8 10 11 12 14 | 69.1
2'F-ANA at 3 4 6 8 9 10 12 13 14 | 172
2'F-ANA at 1 2 3 6 10 11 13 15 | 59.3
2'F-ANA at 2 4 5 8 11 13 14 | 45.1
2'F-ANA at 1 4 6 12 | 268
2'F-ANA at 2 5 8 9 10 11 14 | 61.5

Series 4
Target: Hepatocyte nuclear factor 3-alpha (Foxa1, Mus musculus, UniProt P35582, residues 1-468, full length assumed)
Method: EMSA with sequencing
Molecule type: double-stranded DNA, one strand shown
Medium: in vitro
Concentration: 10 and 20 nM
Setting: whole designed probe, mean of two concentrations, ends assumed
Reference: negative control set to 0
Reading: higher = stronger binding
All sequences stand within: GTGAGCGGTGCCCATTGATGGGGAAC … TTTCACTGGGATCGTGGGGAC
Target sequence (chain): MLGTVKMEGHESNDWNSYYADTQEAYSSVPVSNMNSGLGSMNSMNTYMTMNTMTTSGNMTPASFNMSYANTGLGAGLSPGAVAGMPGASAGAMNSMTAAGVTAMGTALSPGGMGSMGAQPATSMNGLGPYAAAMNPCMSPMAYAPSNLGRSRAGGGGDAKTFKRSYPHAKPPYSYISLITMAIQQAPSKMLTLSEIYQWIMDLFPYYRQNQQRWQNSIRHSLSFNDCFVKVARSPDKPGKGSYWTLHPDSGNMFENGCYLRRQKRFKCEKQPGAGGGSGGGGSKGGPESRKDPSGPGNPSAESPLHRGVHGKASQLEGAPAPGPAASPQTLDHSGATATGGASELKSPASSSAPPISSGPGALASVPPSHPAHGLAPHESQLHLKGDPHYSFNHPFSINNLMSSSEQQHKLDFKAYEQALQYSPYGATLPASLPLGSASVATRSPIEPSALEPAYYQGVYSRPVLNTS
Oligonucleotide | normalised bound fraction [ratio]
ATCTTCCCCCTCTTCCTTGCCCCACCAGCTCACCTACGGGGGTTATTTGCAGATAGGAAAATAAATAAAGCCGGCATTCGTTAACGCAGTTCACGCGCATACTGCTGTTTGCTCTGGATGAATCATGGTCCTTTGGCGACGCCAGGCTCCGGGAGAGCAAAGCACCGTGTCAGGGCCATGATCCGGGGTGGCC | 0.351
TAGGCTTCTCGAGTAGAGAAACAAATGACAAATGGCTAAAATGGGTCACCACACACAAATCATGGTTTCATTATAGCATATTTCAAATGTTCTTATTTGCTCACAATTCTACTACTTCCACTAGACACTAATCTTTTCCAAACAAGGCCTTTTTTGTTACTAATGAATCCCTCTTCCTTTCCCCATTGATCAC | 0.106
GCCTGGAAGAAAGGGGCTGTTTTCCTTTTCACTATTATTATTTTAAACTTTGATGGGCTGCTGACGTCTGGAAATATGCTTGACGCCTGTAAAGCAAATAAGCCACATCACAAGCAGAAAGCCTGTGGGATTTTCTGGTGCCCTATTTCTAGAACCTTCCCTGTTCTGACCATTTGAAGGTGCTTATTTAGTC | 0.284
ATCTTCCCCCTCTTCCTTGCCCCACCAGCTCACCTTCCCGGGTTATTTGCAGATAGGAAAATAAATAAAGCCGGCATTCGTTAACCCTCTTCTGGCGCAAACTGCTGTTTGCTCTGGATCTAACATGGTCCTTTGGCGACGCCAGGCTCCGGGAGAGCAAAGCACCGTGTCAGGGCCATGATCCGGGCTCGCC | 0.343
ATCTTCCCCCTCTTCCTTGCCCCACCAGCTCACCTTCCCGGGTTATTTGCAGATAGGAAAATAAATAAAGCCGGCATTCGTTAACCCTCTTCTGGCGCAAACTGCTGTTTGCTCTGGATGAATCATGGTCCTTTGGCGACGCCAGGCTCCGGGAGAGCAGCCAGCGACACCGATGAGTTGATCCGGGGTGGCC | 0.345
CATCTCGGCCTCCATAACTGCTGGGATTACAAGCATGAGCCACTATACCTGGCTGAAATTTTTTAACATACTAGTATTTGTGTAATTTAAAAAATAAACAGGCTGGGCACGGTGGCTCATGCCTGTAATCCCAGCACTTTGGGAGGCCGAGGCAGGTGGATCCTGAGGTCAAAAGATAGAGACCGTCCTGGCC | 0.215
GTTGCCATAGCTCTGCTGAATGATCATTTGTTGGATTCCATGAATCTCAAAAAAATGAAAGGATCTCTCTTTAGGTGTGTCTGGGGCTATCAAAGTAAACAAGTCAGATGAATTATTGATAGGCTTTGGATCAATGAAATGCCACTGGAATGACAAATGATAAGCACAGTAAAACTGTCACAATCCTTATTCC | 0.416
CCTGAAGGCAGCTGGGGTCAGGGAACAAGGCAACTGAATATCCTCCATCAGGAAATCCTAAGAGAATAAAAAGACCAGTCTTGTAACATAAATATAAACATCTAATCAAATTAGCCAATTAGAAAAACATTTTTAAGAAAAGGCAATCTTTTACCAATTTGTCCTATGTATCTTTTGCATTTTTTCTCCCTAA | 0.0599

Series 5
Target: NFIL3, bZIP domain (human)
Method: DHFR protein complementation
Medium: yeast
Setting: single substitutions, most at no-binding floor
Reference: wild-type JUN-FOS pair
Reading: higher = stronger binding
Starting sequence: JUN, bZIP domain (human); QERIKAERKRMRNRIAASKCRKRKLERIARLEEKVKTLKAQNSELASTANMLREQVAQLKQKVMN; partner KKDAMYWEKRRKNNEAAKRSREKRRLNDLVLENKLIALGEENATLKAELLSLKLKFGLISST
Substitution | binding fitness [natural log]
R30A | -1.3
L52H | -1.52
S43T | -1.35
L52D | -1.48
M51S | -1.39
L52V | -1.52
L45S | -1.48
K36P | -1.49
K36F | -1.46
R53L | -1.48
L38F | -1.58
L52Q | -1.5
E33R | -1.38
M51W | -1.43
N42G | -1.51
L45W | -1.54
A29G | -1.44

Series 6
Target: Sal-like protein 4, full length isoform B (SALL4, Homo sapiens, UniProt Q9UJQ4-2, residues 1-616)
Method: universal PBM
Molecule type: double-stranded DNA, one strand shown
Medium: in vitro
Concentration: not given
Setting: 8-mer, flanks averaged, mean of replicates
Reading: higher = stronger binding
Oligonucleotide | E-score
AGGAACCT | 0.104
GTTCCACA | -0.126
CCAAGCCG | -0.329
AACTTATA | 0.362
AAGGATGA | 0.249
ACAGACCC | -0.167
CAGCGAAA | -0.0526
AACGCTAC | -0.00501
GGTGTAGA | -0.149
TGTGGCAA | 0.0987
ATACTCTG | 0.129
ACATAACA | 0.294
TAGACAGA | 0.0901
CCCGATTA | -0.0368
CTGCCTTA | -0.0358
AAAGTACT | 0.133
AAAGACAT | 0.132
CGTCACGC | -0.132
ATAGAACC | 0.0322
AAGGTTGA | 0.179
TTTAAAAA | 0.285

For quick reference, copied from above (series 4):
Oligonucleotide | normalised bound fraction [ratio]
ATCTTCCCCCTCTTCCTTGCCCCACCAGCTCACCTACGGGGGTTATTTGCAGATAGGAAAATAAATAAAGCCGGCATTCGTTAACGCAGTTCACGCGCATACTGCTGTTTGCTCTGGATGAATCATGGTCCTTTGGCGACGCCAGGCTCCGGGAGAGCAAAGCACCGTGTCAGGGCCATGATCCGGGGTGGCC | 0.351
TAGGCTTCTCGAGTAGAGAAACAAATGACAAATGGCTAAAATGGGTCACCACACACAAATCATGGTTTCATTATAGCATATTTCAAATGTTCTTATTTGCTCACAATTCTACTACTTCCACTAGACACTAATCTTTTCCAAACAAGGCCTTTTTTGTTACTAATGAATCCCTCTTCCTTTCCCCATTGATCAC | 0.106
GCCTGGAAGAAAGGGGCTGTTTTCCTTTTCACTATTATTATTTTAAACTTTGATGGGCTGCTGACGTCTGGAAATATGCTTGACGCCTGTAAAGCAAATAAGCCACATCACAAGCAGAAAGCCTGTGGGATTTTCTGGTGCCCTATTTCTAGAACCTTCCCTGTTCTGACCATTTGAAGGTGCTTATTTAGTC | 0.284
ATCTTCCCCCTCTTCCTTGCCCCACCAGCTCACCTTCCCGGGTTATTTGCAGATAGGAAAATAAATAAAGCCGGCATTCGTTAACCCTCTTCTGGCGCAAACTGCTGTTTGCTCTGGATCTAACATGGTCCTTTGGCGACGCCAGGCTCCGGGAGAGCAAAGCACCGTGTCAGGGCCATGATCCGGGCTCGCC | 0.343
ATCTTCCCCCTCTTCCTTGCCCCACCAGCTCACCTTCCCGGGTTATTTGCAGATAGGAAAATAAATAAAGCCGGCATTCGTTAACCCTCTTCTGGCGCAAACTGCTGTTTGCTCTGGATGAATCATGGTCCTTTGGCGACGCCAGGCTCCGGGAGAGCAGCCAGCGACACCGATGAGTTGATCCGGGGTGGCC | 0.345
CATCTCGGCCTCCATAACTGCTGGGATTACAAGCATGAGCCACTATACCTGGCTGAAATTTTTTAACATACTAGTATTTGTGTAATTTAAAAAATAAACAGGCTGGGCACGGTGGCTCATGCCTGTAATCCCAGCACTTTGGGAGGCCGAGGCAGGTGGATCCTGAGGTCAAAAGATAGAGACCGTCCTGGCC | 0.215
GTTGCCATAGCTCTGCTGAATGATCATTTGTTGGATTCCATGAATCTCAAAAAAATGAAAGGATCTCTCTTTAGGTGTGTCTGGGGCTATCAAAGTAAACAAGTCAGATGAATTATTGATAGGCTTTGGATCAATGAAATGCCACTGGAATGACAAATGATAAGCACAGTAAAACTGTCACAATCCTTATTCC | 0.416
CCTGAAGGCAGCTGGGGTCAGGGAACAAGGCAACTGAATATCCTCCATCAGGAAATCCTAAGAGAATAAAAAGACCAGTCTTGTAACATAAATATAAACATCTAATCAAATTAGCCAATTAGAAAAACATTTTTAAGAAAAGGCAATCTTTTACCAATTTGTCCTATGTATCTTTTGCATTTTTTCTCCCTAA | 0.0599
